Measured values of several laboratories.
Protocols differ between the studies behind these lines.
4'-phosphopantetheinyl transferase PptT: 4'-phosphopantetheinyl transferase PptT (Mycobacterium tuberculosis, UniProt O33336)
UniProt O33336, sequence (whole entry, looked up): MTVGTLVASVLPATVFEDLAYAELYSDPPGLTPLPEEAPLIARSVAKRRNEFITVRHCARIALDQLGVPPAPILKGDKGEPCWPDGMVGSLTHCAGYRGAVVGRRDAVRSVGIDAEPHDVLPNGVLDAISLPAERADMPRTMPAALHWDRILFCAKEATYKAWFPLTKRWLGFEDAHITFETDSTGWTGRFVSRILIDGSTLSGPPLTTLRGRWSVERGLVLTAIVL
UniProt P32246, sequence (whole entry, looked up): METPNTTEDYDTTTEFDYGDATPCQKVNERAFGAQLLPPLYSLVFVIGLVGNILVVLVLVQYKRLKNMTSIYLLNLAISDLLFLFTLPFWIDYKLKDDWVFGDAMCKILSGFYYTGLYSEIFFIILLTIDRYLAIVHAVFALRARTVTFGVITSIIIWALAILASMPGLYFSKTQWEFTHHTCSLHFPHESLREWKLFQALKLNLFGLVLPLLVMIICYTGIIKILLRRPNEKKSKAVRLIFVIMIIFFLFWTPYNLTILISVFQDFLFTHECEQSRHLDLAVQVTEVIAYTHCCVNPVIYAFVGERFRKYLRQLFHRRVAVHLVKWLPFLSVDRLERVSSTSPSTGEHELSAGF
UniProt Q92918, sequence (whole entry, looked up): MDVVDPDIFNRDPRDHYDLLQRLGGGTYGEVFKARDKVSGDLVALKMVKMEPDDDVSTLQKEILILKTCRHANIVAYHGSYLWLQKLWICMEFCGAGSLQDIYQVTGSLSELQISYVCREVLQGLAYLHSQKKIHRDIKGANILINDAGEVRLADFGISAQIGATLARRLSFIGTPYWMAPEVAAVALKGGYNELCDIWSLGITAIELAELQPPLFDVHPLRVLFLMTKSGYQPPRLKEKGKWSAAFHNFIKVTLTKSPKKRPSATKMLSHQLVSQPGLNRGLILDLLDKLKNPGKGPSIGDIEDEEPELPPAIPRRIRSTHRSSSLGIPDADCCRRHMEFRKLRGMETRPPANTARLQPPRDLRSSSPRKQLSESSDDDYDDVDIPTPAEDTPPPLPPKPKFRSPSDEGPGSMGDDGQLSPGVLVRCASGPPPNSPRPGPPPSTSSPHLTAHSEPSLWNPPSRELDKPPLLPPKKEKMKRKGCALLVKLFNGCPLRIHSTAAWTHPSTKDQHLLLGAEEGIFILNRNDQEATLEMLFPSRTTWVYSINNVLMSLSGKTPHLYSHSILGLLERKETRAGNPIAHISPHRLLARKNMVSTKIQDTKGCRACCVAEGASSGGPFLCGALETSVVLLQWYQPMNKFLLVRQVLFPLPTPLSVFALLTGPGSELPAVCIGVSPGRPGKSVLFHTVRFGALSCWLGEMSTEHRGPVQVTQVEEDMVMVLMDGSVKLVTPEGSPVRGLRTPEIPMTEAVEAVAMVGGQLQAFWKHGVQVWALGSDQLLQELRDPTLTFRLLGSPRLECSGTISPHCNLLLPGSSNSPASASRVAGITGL
UniProt Q9BX84, sequence (whole entry, looked up): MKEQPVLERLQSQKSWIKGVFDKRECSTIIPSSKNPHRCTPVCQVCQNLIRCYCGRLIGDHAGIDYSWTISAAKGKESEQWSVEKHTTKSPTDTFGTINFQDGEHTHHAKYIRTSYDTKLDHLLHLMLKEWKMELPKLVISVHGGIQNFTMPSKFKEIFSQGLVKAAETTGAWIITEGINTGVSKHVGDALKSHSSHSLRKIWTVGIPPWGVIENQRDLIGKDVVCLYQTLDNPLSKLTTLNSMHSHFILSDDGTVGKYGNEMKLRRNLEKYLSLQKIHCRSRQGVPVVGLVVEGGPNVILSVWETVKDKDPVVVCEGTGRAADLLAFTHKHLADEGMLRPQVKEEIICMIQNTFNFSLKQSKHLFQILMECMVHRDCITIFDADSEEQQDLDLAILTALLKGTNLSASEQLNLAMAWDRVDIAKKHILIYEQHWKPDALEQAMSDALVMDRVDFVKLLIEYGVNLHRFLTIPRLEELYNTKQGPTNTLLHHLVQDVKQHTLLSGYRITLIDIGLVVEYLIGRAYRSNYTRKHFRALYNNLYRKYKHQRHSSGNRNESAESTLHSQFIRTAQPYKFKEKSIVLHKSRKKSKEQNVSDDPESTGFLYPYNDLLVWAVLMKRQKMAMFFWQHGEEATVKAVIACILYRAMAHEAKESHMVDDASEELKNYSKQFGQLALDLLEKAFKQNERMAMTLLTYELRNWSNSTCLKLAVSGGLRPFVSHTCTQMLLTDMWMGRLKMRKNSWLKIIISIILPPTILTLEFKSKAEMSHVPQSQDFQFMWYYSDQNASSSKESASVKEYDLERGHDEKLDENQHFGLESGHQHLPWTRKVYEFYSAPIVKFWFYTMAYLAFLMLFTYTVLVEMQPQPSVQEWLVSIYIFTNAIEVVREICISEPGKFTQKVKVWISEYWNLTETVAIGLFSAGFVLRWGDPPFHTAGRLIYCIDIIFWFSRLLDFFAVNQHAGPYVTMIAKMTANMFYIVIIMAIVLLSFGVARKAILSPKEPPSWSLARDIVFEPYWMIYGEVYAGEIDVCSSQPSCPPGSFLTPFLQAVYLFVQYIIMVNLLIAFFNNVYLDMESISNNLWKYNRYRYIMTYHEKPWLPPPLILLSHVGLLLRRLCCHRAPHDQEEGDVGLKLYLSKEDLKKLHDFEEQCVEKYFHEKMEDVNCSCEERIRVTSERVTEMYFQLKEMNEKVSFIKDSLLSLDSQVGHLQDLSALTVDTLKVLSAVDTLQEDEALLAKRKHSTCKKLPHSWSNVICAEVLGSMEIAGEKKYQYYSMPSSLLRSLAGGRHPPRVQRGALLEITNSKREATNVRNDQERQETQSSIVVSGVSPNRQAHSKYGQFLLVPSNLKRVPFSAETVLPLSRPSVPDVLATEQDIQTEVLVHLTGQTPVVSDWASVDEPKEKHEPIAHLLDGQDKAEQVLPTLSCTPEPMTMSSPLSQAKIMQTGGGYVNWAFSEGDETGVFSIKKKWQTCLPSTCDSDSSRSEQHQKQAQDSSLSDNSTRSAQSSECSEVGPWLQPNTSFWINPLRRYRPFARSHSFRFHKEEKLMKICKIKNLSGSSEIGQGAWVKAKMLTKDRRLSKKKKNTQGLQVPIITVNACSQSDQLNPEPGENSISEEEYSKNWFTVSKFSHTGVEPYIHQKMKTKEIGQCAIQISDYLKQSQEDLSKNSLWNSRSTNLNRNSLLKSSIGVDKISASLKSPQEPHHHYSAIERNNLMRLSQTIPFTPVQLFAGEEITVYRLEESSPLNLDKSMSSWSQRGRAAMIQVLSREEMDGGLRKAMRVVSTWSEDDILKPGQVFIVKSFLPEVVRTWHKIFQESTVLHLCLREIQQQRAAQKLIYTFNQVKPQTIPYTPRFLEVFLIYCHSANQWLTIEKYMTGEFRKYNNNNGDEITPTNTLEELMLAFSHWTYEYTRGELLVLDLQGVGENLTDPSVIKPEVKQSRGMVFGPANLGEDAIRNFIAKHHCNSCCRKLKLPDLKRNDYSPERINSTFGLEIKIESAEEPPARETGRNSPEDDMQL
UniProt Q04759, sequence (whole entry, looked up): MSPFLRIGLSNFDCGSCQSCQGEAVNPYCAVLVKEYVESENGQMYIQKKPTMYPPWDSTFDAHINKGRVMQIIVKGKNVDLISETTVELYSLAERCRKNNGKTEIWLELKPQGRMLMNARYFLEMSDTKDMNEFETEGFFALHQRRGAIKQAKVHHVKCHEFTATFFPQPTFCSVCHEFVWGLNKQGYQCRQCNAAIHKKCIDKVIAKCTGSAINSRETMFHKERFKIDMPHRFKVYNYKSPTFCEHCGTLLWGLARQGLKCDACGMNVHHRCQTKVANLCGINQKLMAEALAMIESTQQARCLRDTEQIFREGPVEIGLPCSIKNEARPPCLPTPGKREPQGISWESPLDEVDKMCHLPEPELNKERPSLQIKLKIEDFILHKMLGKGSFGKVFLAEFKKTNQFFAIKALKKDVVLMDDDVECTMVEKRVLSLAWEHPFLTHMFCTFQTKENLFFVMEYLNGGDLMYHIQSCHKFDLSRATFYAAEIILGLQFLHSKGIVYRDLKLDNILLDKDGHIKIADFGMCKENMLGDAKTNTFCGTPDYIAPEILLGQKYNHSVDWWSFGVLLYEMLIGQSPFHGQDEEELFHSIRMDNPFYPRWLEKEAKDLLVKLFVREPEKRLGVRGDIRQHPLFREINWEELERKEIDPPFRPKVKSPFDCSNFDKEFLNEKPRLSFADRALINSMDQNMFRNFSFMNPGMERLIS
UniProt Q13263, sequence (whole entry, unmodified, looked up): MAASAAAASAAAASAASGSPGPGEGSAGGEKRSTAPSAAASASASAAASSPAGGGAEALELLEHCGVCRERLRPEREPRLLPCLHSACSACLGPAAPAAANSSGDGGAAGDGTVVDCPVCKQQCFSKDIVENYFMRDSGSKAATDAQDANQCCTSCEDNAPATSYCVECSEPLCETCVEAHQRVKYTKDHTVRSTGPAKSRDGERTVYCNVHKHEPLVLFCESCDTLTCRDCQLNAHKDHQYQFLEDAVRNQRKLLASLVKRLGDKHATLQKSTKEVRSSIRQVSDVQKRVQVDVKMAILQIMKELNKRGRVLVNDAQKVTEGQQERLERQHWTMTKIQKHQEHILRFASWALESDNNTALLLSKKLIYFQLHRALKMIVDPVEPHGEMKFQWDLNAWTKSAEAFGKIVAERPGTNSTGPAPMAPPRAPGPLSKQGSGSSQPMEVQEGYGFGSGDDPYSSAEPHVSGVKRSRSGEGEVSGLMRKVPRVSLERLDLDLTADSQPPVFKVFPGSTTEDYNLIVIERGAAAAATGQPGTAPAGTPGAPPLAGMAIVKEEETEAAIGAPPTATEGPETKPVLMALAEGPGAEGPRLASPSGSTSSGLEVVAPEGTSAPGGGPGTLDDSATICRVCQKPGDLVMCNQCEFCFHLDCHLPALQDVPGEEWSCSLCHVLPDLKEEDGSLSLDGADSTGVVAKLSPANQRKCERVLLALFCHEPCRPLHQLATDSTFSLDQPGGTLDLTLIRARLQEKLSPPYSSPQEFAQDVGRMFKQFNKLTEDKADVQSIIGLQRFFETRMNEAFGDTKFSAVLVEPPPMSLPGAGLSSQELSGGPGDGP

| SMILES | target | effect on | mode | method | concentration | quantity | value |
| --- | --- | --- | --- | --- | --- | --- | --- |
| CC(C)CC(=O)OC[C@H]1O[C@@](C#N)(c2ccc3c(N)ncnn23)[C@H](O)[C@@H]1O | CCR1 (Homo sapiens, UniProt P32246) | cell-free assay | – | – | 20 µM | inhibition | -10% |
| COc1ncccc1-c1cnn2ccc(N3CCN(C(=O)OC(C)C)CC3)nc12 | TRPM6 (Homo sapiens, UniProt Q9BX84) | binding | – | competition with immobilised ligand | 1 µM | remaining binding | 100% |
| Cc1nn(C)cc1-c1nc2c(N3CCN(Cc4ccc(Cl)cc4)CC3)c(Cl)cnc2[nH]1 | PDGFRA (Homo sapiens, UniProt P16234) | binding | – | competition with immobilised ligand | 1 µM | remaining binding | 93% |
| CCN(CC)CCCC[C@H](NC(=O)[C@H](CC(C)C)NC(=O)[C@H](C)NC(=O)[C@H](Cc1ccccc1)NC(=O)c1ccc(C(C)(C)C)cc1)C(=O)N[C@@H](CO)C(=O)OC | TRIM28 (Homo sapiens, UniProt Q13263) | thermal stability | – | DSF | 25 µM | ΔTm | 0.47 °C |
| C#Cc1n[nH]c2c(-c3cn(C(C)c4ccccn4)c(=O)[nH]c3=O)cc(F)cc12 (stereo not shown) | MAP4K1 (Homo sapiens, UniProt Q92918) | enzyme activity | inhibitor | – | 1 µM | inhibition | 11% |
| Nc1ncc(-c2nc(N3CCOCC3)nc(N3CCOCC3)n2)c(C(F)F)n1 | PIK3CA (Homo sapiens, UniProt P42336, Q546K) | binding | – | competition with immobilised ligand | 10 µM | remaining binding | 0% |
| CC(C)C(=O)OCc1cc2[nH]c(=S)n(Cc3cncc(C#N)c3)c(=O)c2cc1Cl | 4'-phosphopantetheinyl transferase PptT | enzyme activity | inhibitor | FP | – | IC50 | 84.7 µM |
| [2H]c1c([2H])c([C@]2([2H])CCCN2C(=O)C(C)(C)Oc2ccc3cn[nH]c3c2)c([2H])c([2H])c1C([2H])([2H])[2H] | PRKCQ (Homo sapiens, UniProt Q04759) | binding | – | competition with immobilised ligand | 1 µM | remaining binding | 75% |
| CC(C)C(=O)OCc1cc2[nH]c(=S)n(Cc3cccnc3)c(=O)c2cc1Cl | 4'-phosphopantetheinyl transferase PptT | enzyme activity | inhibitor | FP | – | IC50 | 44.9 µM |
| CN1CCC[C@H]1c1cccnc1 | Neuronal acetylcholine receptor; alpha2/beta2 (Rattus norvegicus, UniProt P12389+P12390) | ligand displacement | – | radioligand | 50 µM | inhibition | 96.3% |

Repeated from above:
| SMILES | target | effect on | mode | method | concentration | quantity | value |
| --- | --- | --- | --- | --- | --- | --- | --- |
| [2H]c1c([2H])c([C@]2([2H])CCCN2C(=O)C(C)(C)Oc2ccc3cn[nH]c3c2)c([2H])c([2H])c1C([2H])([2H])[2H] | PRKCQ (Homo sapiens, UniProt Q04759) | binding | – | competition with immobilised ligand | 1 µM | remaining binding | 75% |
